# Measurements collected from several papers.
# Each line is one published result; not all experiments were run side by side. Numbers after ± are the reported error.
Structure (SMILES),test,test system,conditions,scale,quantity,result
C[C@H](CN(C)Cc1ccccc1)NC(=O)c1ccc(-c2noc(C(F)(F)[18F])n2)cc1,PET,"Sprague-Dawley rat, female, brain and muscle","intravenous, 30 min",reference: brain SUV over muscle SUV,brain-to-muscle ratio,2.66 ± 0.22
N=C(N)NCCC[C@@H]1NC(=O)[C@H](Cc2c[nH]c3ccccc23)NC(=O)[C@@H](CC2CCCCC2)NC(=O)[C@@H]2CCCN2C(=O)[C@@H](NC(=O)CCc2ccccc2)CCCNC1=O,,"C57BL/6J mice, spinal cord","intravenous, 1 mg/kg, two-compartment model",,apparent peripheral volume (V2/F),0.2 µg/(ng/g)
N=C(N)NCCC[C@@H]1NC(=O)[C@H](CCCCNC(=O)CC[C@H](NC(=O)CC[C@H](NC(=O)CN2CCN(CC(=O)O)CCN(CC(=O)O)CCN(CC(=O)O)CC2)C(=O)N[C@@H](CCC(=O)NCCCC[C@@H]2NC(=O)[C@@H](Cc3ccccc3)NC(=O)[C@H](CC(=O)O)NC(=O)CNC(=O)[C@H](CCCNC(=N)N)NC2=O)C(=O)NCCCC[C@@H]2NC(=O)[C@@H](Cc3ccccc3)NC(=O)[C@H](CC(=O)O)NC(=O)CNC(=O)[C@H](CCCNC(=N)N)NC2=O)C(=O)NCCCC[C@@H]2NC(=O)[C@@H](Cc3ccccc3)NC(=O)[C@H](CC(=O)O)NC(=O)CNC(=O)[C@H](CCCNC(=N)N)NC2=O)NC(=O)[C@@H](Cc2ccccc2)NC(=O)[C@H](CC(=O)O)NC(=O)CNC1=O [gallium-68 labelled],,"female BALB/c nude mice, SK-RC-52 xenograft, tumour","0.5 µg, 2 h post injection, together with: excess unlabelled DOTA-E-[c(RGDfK)]2 50 µg",,radioactivity concentration,decreased
Cc1nc(C)c(C=[N+]([O-])C(C)(C)C)nc1C,,"healthy human, both sexes, serum","oral, 600 mg twice daily, 7 days",,Vss/F,88.8 L
O=C([O-])CN1CCN(CC(=O)[O-])CCN(CC(=O)NCCc2ccc3c(c2)C2C=CCC2C(c2cc4c(cc2Br)OCO4)N3)CCN(CC(=O)[O-])CC1.[111In+3] (stereo not drawn),,"mouse, Hec50 endometrial tumour, brain",4 h post injection,,tissue uptake,0.05 ± 0.02 %ID/g
CCCCCCCCCCCCCCCC(=O)NCCOCCOCCOCCOCCOCCOCCOCCOCCC(=O)NCCCC[C@H](NC(=O)CNC(=O)[C@@H]1CSSC[C@H](N)C(=O)N[C@@H](Cc2ccc(O)cc2)C(=O)N[C@@H]([C@@H](C)CC)C(=O)N[C@@H](CCC(N)=O)C(=O)N[C@@H](CC(N)=O)C(=O)N1)C(=O)NCC(N)=O,,"rat, CSF","subcutaneous depot, 10 mg/kg",,unbound Cmax,9 pM
CCc1cc(Nc2nc(-c3ccc(-n4cnc(C)c4)c(F)c3)cs2)c(C)cc1C(=O)O,,"rat, plasma","oral, dose not given",,share of drug-related material,> 10%
CC(C)(O)c1ncc([S@](N)(=O)=NC(=O)Nc2c3c(cc4c2CCC4)CCC3)s1,,"healthy human, fasted","oral, 300 mg single dose, spray-dried dispersion",,Tmax,2.53 h
CC(C)NC(=O)N1CC=C(c2cc3c(Nc4ccc5scnc5c4)ncnc3s2)CC1,,"BALB/c mouse, plasma","oral, 10 mg/kg, 30 min",,concentration,5.07 ng/mL
CC(C)C[C@@H](NC(=O)[C@H](NC(=O)[C@H]1CCCN1)[C@H](C)O)C(=O)N[C@H](Cc1c[nH]cn1)C(=O)N[C@@H](C(=O)N[C@H](Cc1c[nH]cn1)C(=O)N[C@H](CC(N)=O)C(=O)N[C@H](CCCNC(=N)N)C(=O)N[C@H](CCCNC(=N)N)C(=O)N[C@H](CCCNC(=N)N)C(=O)N[C@H](CCCNC(=N)N)C(=O)N[C@H](CCCNC(=N)N)C(N)=O)[C@H](C)O,,"beagle dog, plasma","oral, 20 mg/kg, single dose",,AUC(0-inf),3890 ng·h/mL
NC[C@@H](C(=O)Nc1ccc(-c2cn[nH]c2)cc1)c1ccccc1,,New Zealand White rabbits,"topical, 0.1 %, first hour","reference: contralateral eye, direction not given",ocular hyperemia score,0 to 1
C[C@H](NC(=O)C[C@H](CCCNC(=N)N)NC(=O)[C@@H]1CCCN1C(=O)[C@H](CCCNC(=N)N)NC(=O)CNC(=O)c1ccc2c(c1)C1(OC2=O)c2ccc(O)cc2Oc2cc(O)ccc21)C(=O)N[C@@H](C)C(=O)N[C@H](C(=O)N[C@@H](Cc1ccccc1)C(=O)N[C@@H](C)C(=O)N[C@@H](CCC(=O)O)C(=O)NCC(N)=O)[C@@H](C)O,,HeLa cytosolic lysate,"1 µM, 37 °C",,t1/2,9 min
NS(=O)(=O)c1ccc(N2N=C(C(F)(F)F)CC2c2ccc(F)cc2F)cc1 (stereo not drawn),,"beagle dog, plasma","oral, 4 mg/kg, single dose",,AUC(0-inf),47000 ng·h/mL
CC(C)c1cnc(-c2cc(Cl)ccc2F)cc1Nc1ccncc1C(=O)NC(CO)CO,"monotherapy, refers to: nausea",human patients,"oral, dose not given, grade 2, phase I A",,patients with treatment-related adverse event,7.1%
C=C(c1ccc(C(=O)O)c(F)c1)c1cc2c(cc1C)C(C)(C)C=CC2(C)C,,"Sprague-Dawley rat, male, plasma","oral, 100 mg/kg, 2 h, sesame oil vehicle",,HDL level,80 ± 7.5 mg/dL
